Measurements pooled from the literature.
Parts stem from different laboratories: compare values within a part only. Several values in a cell are separate wells, animals, samples, runs or records.
Sequence of UniProt Q16832 (whole entry, looked up): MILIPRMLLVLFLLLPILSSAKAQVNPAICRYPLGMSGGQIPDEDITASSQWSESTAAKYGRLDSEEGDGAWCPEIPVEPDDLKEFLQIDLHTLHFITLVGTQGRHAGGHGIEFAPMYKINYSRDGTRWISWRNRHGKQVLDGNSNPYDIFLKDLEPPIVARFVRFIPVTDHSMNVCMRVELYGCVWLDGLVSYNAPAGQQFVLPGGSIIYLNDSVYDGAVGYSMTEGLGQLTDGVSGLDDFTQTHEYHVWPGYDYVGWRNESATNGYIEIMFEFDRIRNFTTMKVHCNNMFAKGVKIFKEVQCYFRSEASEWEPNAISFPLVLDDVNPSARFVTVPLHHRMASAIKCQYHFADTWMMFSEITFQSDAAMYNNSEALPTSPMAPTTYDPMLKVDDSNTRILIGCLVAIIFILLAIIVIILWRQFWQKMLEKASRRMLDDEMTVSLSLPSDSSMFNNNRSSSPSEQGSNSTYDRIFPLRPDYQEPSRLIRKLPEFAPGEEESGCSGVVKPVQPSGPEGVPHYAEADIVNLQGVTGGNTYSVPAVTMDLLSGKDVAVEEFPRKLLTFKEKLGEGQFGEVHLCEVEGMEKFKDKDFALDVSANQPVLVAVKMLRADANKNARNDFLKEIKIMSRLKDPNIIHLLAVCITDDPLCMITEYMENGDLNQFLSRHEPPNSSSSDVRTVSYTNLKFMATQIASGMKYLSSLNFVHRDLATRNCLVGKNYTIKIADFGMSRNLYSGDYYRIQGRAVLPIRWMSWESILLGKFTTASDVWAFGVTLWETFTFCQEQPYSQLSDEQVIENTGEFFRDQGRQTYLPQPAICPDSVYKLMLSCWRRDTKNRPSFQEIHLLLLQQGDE
Sequence of UniProt Q9UIK4 (whole entry, looked up): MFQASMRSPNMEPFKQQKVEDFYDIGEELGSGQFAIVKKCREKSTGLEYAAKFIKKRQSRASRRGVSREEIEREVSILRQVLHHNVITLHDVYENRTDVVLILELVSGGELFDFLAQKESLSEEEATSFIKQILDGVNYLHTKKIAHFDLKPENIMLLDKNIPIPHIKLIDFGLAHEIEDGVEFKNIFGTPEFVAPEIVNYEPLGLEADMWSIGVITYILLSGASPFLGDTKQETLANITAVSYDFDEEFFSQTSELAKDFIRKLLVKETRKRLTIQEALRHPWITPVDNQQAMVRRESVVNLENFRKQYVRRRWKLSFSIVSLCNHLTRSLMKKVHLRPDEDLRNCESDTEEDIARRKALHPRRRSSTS
Sequence of UniProt Q8N4C8 (whole entry, looked up): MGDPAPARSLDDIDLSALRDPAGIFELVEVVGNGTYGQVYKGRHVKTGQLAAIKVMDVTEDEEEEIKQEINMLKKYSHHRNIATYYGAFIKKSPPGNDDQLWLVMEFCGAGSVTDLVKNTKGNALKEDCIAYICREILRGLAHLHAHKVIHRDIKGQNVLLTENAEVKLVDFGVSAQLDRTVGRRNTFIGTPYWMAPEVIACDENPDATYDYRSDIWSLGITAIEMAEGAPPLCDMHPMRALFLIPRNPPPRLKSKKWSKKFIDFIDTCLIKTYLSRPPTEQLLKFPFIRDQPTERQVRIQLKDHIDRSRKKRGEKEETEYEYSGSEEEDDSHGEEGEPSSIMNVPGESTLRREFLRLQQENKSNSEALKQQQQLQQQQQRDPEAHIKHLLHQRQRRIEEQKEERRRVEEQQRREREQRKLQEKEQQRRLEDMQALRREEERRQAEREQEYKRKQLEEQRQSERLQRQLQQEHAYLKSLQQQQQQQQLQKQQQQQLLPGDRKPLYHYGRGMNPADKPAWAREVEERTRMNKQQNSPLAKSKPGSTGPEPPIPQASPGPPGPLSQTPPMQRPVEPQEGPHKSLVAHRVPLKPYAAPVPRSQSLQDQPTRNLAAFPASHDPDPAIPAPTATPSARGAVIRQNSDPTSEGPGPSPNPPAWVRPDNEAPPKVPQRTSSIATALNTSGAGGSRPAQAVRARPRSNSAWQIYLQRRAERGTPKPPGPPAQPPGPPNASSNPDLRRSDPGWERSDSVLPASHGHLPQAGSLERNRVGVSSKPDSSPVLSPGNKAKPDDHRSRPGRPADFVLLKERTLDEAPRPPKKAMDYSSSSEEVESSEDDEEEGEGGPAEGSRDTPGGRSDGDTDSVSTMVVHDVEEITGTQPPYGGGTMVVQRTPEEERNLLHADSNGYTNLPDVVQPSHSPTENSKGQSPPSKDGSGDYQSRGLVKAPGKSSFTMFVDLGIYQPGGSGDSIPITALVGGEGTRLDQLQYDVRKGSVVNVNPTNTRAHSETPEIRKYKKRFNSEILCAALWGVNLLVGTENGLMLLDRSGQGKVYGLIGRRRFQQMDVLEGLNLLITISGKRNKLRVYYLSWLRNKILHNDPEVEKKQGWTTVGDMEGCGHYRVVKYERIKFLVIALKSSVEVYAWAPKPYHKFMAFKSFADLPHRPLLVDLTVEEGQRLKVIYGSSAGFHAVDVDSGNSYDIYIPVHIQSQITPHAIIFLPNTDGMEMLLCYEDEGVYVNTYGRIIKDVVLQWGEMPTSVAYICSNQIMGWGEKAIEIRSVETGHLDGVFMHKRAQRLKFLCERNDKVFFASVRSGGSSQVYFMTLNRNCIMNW
Sequence of UniProt O75116 (whole entry, looked up): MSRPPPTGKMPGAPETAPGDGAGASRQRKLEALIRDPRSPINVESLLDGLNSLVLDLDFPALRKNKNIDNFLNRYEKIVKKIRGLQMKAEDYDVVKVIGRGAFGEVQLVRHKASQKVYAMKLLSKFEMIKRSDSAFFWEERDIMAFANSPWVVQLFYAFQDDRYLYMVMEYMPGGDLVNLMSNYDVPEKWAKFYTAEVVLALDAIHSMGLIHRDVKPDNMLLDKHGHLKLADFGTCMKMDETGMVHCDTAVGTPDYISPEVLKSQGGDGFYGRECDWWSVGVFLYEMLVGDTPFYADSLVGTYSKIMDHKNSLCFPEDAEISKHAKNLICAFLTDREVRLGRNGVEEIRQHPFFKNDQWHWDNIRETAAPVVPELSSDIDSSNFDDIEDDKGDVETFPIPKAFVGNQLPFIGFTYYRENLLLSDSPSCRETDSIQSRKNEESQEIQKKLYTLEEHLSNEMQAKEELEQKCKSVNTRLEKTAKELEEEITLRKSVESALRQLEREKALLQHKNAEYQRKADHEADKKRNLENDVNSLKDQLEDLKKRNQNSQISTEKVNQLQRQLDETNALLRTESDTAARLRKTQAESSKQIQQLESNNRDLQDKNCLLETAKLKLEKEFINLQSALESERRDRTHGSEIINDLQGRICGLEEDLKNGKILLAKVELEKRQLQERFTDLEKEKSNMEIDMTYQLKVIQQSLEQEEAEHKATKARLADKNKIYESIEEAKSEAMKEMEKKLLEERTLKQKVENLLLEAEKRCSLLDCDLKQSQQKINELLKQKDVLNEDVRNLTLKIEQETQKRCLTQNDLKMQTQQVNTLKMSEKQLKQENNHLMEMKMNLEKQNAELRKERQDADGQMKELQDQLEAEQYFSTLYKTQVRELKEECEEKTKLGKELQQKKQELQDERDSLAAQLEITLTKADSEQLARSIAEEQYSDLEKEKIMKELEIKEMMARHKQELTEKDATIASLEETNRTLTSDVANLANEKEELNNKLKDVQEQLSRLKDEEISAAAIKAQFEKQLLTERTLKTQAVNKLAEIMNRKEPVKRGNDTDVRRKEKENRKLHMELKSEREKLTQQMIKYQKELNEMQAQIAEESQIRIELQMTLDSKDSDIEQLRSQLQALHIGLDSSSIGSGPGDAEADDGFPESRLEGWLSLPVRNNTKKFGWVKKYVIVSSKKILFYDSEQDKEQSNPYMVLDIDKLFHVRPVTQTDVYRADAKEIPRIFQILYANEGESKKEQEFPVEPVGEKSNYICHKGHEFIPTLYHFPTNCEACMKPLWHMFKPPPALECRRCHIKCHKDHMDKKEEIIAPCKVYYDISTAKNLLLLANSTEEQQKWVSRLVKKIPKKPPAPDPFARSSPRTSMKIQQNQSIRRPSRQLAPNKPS
Sequence of UniProt O15530 (whole entry, looked up): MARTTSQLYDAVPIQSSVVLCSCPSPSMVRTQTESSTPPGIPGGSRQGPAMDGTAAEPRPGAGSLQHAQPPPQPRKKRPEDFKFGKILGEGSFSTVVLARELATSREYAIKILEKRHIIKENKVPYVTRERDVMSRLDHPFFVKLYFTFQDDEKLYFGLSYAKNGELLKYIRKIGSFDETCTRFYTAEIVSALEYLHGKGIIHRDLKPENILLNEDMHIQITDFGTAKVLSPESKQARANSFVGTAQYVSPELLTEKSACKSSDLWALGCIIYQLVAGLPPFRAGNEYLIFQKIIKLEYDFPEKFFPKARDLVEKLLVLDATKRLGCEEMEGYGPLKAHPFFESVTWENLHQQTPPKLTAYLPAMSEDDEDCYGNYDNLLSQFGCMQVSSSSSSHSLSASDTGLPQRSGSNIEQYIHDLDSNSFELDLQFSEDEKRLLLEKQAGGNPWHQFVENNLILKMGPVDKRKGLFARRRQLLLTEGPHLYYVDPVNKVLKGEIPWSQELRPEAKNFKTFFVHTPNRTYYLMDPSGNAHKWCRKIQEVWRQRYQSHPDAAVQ
Sequence of UniProt Q00526 (whole entry, looked up): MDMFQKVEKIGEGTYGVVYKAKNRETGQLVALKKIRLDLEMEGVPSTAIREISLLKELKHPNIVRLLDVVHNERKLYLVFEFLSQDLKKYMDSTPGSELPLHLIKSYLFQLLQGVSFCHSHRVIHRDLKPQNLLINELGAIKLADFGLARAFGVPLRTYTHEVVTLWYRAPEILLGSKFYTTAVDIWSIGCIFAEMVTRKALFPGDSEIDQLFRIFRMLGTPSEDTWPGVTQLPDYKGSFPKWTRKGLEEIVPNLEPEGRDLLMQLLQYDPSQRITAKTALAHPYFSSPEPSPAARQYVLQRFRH

Study 1 — effect on: enzyme activity; mode: inhibitor; technique: Ub-TR-FRET; medium: HECT domain; reading: higher = more chain formation
SMILES: CCONC(=O)/C=C/CNCCCCN1c2ccccc2CCc2ccc(Cl)cc21.O=C(O)/C=C\C(=O)O
Target: E3 ubiquitin-protein ligase NEDD4, HECT domain (Homo sapiens, UniProt P46934)
Construct (P46934 938-1319, limits assumed): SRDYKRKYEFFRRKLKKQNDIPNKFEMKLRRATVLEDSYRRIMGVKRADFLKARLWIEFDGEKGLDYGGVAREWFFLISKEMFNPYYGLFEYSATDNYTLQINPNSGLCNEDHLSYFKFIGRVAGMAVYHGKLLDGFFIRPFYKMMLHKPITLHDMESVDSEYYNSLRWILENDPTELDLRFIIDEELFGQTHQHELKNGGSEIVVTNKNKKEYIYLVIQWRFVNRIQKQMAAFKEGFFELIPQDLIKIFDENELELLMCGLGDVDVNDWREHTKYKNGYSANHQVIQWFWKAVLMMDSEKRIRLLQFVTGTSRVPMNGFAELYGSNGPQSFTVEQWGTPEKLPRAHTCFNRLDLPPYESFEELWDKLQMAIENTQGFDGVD
| conditions | ubiquitin chain formation AUC |
| --- | --- |
| 0.01524 µM | 37300 a.u. and 26500 a.u. and 27100 a.u. and 37800 a.u. and 37500 a.u. |
| 0.1372 µM | 22200 a.u. and 33200 a.u. and 23700 a.u. and 33900 a.u. and 23800 a.u. and 34000 a.u. |
| 0.04572 µM | 33200 a.u. and 36300 a.u. and 25600 a.u. and 36100 a.u. and 25400 a.u. and 23800 a.u. |
| 0.4115 µM | 27500 a.u. and 18500 a.u. and 17400 a.u. and 25900 a.u. and 18000 a.u. and 26200 a.u. |
| 100 µM | 6580 a.u. and 7270 a.u. and 7370 a.u. and 7360 a.u. and 7060 a.u. and 6930 a.u. |

Study 2 — effect on: binding; technique: competition with immobilised ligand; concentration: 1 µM
SMILES: COc1cc(-c2nc3ccc(C(=O)NCCCN(C)C)cc3n2C2CCC2)cc(OC)c1OC
| target | remaining binding |
| --- | --- |
| ROCK2 (Homo sapiens, UniProt O75116) | 97% |
| CDK3 (Homo sapiens, UniProt Q00526) | 100% |
| DDR2 (Homo sapiens, UniProt Q16832) | 56% |
| DAPK2 (Homo sapiens, UniProt Q9UIK4) | 100% |
| PDPK1 (Homo sapiens, UniProt O15530) | 100% |
| MINK1 (Homo sapiens, UniProt Q8N4C8) | 62% |
| CHUK (Homo sapiens, UniProt O15111) | 100% |
| BUB1 (Homo sapiens, UniProt O43683) | 91% |

Further values, each from its own experiment
| SMILES | tested on | assay | test system | conditions | quantity | result |
| --- | --- | --- | --- | --- | --- | --- |
| C=CCN1C(=O)C(O)(C(=O)O)Oc2cc(F)ccc21 (stereo not shown) | Arabidopsis thaliana | hypocotyl length | Col-0 | 3.125 µg/mL, 7 days, seed germination, dark | inhibition | 0.4% |
| Cn1cc(-c2cccc(CN3CCC4(CC3)COc3c4ccc4c3CN([C@H]3CCC(=O)NC3=O)C4=O)c2)cn1 | – | – | Crbn I391V mouse, MC-38 tumour | oral, daily, 30 mg/kg, animals reaching endpoint, added: anti-LAG3 antibody 10 mg/kg i.p. weekly | time to tumour volume 2000 mm3 | 43 days and 28 days and 20 days and 57 days and 36 days |
| O=C(Nc1ccccc1)Nc1cccc(Oc2ccc3nccn3n2)c1 | DDR2 (Homo sapiens, UniProt Q16832) | cell-free assay | – | 1 µM | inhibition | 1% |

Repeated from above (study 1):
| conditions | ubiquitin chain formation AUC |
| --- | --- |
| 0.4115 µM | 27500 a.u. and 18500 a.u. and 17400 a.u. and 25900 a.u. and 18000 a.u. and 26200 a.u. |
